Results gathered from unrelated publications.
Each numbered part is a random draw from the data of one study; scales do not carry over between parts. Positions count from the first letter of the parent shown.

Series 1
Partner: ARF20 484-590 (Arabidopsis thaliana, UniProt Q9C7I9)
Technique: two-hybrid
Relative to: out of 4 tests
Reading: higher = firmer interaction
B1: IAA14 (Arabidopsis thaliana, UniProt Q38832); chain MNLKETELCLGLPGGTETVESPAKSGVGNKRGFSETVDLKLNLQSNKQGHVDLNTNGAPKEKTFLKDPSKPPAKAQVVGWPPVRNYRKNVMANQKSGEAEEAMSSGGGTVAFVKVSMDGAPYLRKVDLKMYTSYKDLSDALAKMFSSFTMGSYGAQGMIDFMNESKVMDLLNSSEYVPSYEDKDGDWMLVGDVPWPMFVESCKRLRIMKGSEAIGLAPRAMEKFKNRS
B2: IAA17 (Arabidopsis thaliana, UniProt P93830); chain MMGSVELNLRETELCLGLPGGDTVAPVTGNKRGFSETVDLKLNLNNEPANKEGSTTHDVVTFDSKEKSACPKDPAKPPAKAQVVGWPPVRSYRKNVMVSCQKSSGGPEAAAFVKVSMDGAPYLRKIDLRMYKSYDELSNALSNMFSSFTMGKHGGEEGMIDFMNERKLMDLVNSWDYVPSYEDKDGDWMLVGDVPWPMFVDTCKRLRLMKGSDAIGLAPRAMEKCKSRA
B3: IAA12 (Arabidopsis thaliana, UniProt Q38830); chain MRGVSELEVGKSNLPAESELELGLGLSLGGGAWKERGRILTAKDFPSVGSKRSAESSSHQGASPPRSSQVVGWPPIGLHRMNSLVNNQAMKAARAEEGDGEKKVVKNDELKDVSMKVNPKVQGLGFVKVNMDGVGIGRKVDMRAHSSYENLAQTLEEMFFGMTGTTCREKVKPLRLLDGSSDFVLTYEDKEGDWMLVGDVPWRMFINSVKRLRIMGTSEASGLAPRRQEQKDRQRNNPV
B4: ARF4 660-788 (Arabidopsis thaliana, UniProt Q9ZTX9); chain QSSSKRICTKVHKQGSQVGRAIDLSRLNGYDDLLMELERLFNMEGLLRDPEKGWRILYTDSENDMMVVGDDPWHDFCNVVWKIHLYTKEEVENANDDNKSCLEQAALMMEASKSSSVSQPDSSPTITRV
B5: ARF12 500-593 (Arabidopsis thaliana, UniProt Q9XID4); chain TEIQNKQFSSSRTCTKVQMQGVTIGRAVDLSVLNGYDQLILELEKLFDIKGQLQTRNQWEIAFTDSDEDKMLVGDDPWPEFCNMVKKIFIQKRR
B6: ARF18 482-602 (Arabidopsis thaliana, UniProt Q9C5W9); chain QKKQQTSRSRTKVQMQGIAVGRAVDLTLLKSYDELIDELEEMFEIQGQLLARDKWIVVFTDDEGDMMLAGDDPWNEFCKMAKKIFIYSSDEVKKMTTKLKISSSLENEEYGNESFENRSRG
B7: ARF6 790-935 (Arabidopsis thaliana, UniProt Q9ZTX8); chain SENPQSNTFVKVYKSGSFGRSLDISKFSSYHELRSELARMFGLEGQLEDPVRSGWQLVFVDRENDVLLLGDDPWPEFVSSVWCIKILSPQEVQQMGKRGLELLNSAPSSNNVDKLPSNGNCDDFGNRSDPRNLGNGIASVGGSFNY
B8: ARF16 570-670 (Arabidopsis thaliana, UniProt Q93YR9); chain SPCSKKVHDASGLETGHCKVFMESDDVGRTLDLSVLGSYEELSRKLSDMFGIKKSEMLSSVLYRDASGAIKYAGNEPFSEFLKTARRLTILTEQGSESVVV
Residues (chain): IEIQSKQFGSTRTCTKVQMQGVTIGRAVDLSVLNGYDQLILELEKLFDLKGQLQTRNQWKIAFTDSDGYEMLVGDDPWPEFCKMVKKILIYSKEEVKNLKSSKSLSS
| Molecule | positive tests |
| --- | --- |
| B1 (IAA14) | 0 |
| B2 (IAA17) | 4 |
| B3 (IAA12) | 0 |
| B4 (ARF4 660-788) | 0 |
| B5 (ARF12 500-593) | 0 |
| B6 (ARF18 482-602) | 1 |
| B7 (ARF6 790-935) | 2 |
| B8 (ARF16 570-670) | 1 |

Series 2
Target: Sal-like protein 4, full length isoform B (SALL4, Homo sapiens, UniProt Q9UJQ4-2, residues 1-616)
Technique: universal PBM
Form: double-stranded DNA, one strand shown
Medium: in vitro
Tested at: not given
Notes: 8-mer, flanks averaged, mean of replicates
Reading: higher = stronger binding
Target sequence (chain): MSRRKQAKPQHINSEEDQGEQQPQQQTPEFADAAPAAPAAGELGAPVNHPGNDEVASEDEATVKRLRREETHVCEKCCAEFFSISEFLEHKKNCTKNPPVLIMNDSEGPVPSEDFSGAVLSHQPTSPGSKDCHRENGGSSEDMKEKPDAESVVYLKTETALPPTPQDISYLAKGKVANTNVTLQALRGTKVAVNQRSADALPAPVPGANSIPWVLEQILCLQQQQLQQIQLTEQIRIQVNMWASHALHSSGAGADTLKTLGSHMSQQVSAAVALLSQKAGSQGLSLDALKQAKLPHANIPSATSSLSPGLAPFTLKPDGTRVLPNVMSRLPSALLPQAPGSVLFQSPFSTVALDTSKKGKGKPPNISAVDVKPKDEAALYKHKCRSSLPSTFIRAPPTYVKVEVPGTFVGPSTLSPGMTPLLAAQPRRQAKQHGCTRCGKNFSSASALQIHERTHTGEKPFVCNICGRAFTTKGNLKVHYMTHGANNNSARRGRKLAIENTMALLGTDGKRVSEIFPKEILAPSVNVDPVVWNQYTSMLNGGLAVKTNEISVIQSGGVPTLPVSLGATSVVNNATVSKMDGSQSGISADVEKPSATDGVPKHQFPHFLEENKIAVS
| Sequence | E-score |
| --- | --- |
| CAGTACAG | 0.0756 |
| GATTGTAA | 0.232 |
| ACTTGTTC | 0.0966 |
| AGTTTCCG | -0.0958 |
| AGTTGCCA | -0.23 |
| TTGTACAA | 0.296 |
| AACTACGA | 0.168 |
| AACGAGAT | 0.00255 |

Further values, each from its own experiment
P1: viral docking peptide; KGVKRKLFAEDSS; partner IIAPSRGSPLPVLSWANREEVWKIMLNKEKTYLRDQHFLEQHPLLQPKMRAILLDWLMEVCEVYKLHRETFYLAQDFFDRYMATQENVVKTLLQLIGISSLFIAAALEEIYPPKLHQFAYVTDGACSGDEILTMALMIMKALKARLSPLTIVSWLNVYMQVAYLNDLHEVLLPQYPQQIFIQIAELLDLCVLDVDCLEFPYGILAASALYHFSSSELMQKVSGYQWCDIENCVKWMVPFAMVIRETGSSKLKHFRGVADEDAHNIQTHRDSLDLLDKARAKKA
| Substance | target or system | test | system | setting | how to read | measurement | value |
| --- | --- | --- | --- | --- | --- | --- | --- |
| PDIA3 (Homo sapiens, UniProt P30101) | PLK1 (Homo sapiens, UniProt P53350) | cross-linking MS | cell fractions | together with: DHSO |  | cross-linked residues | E372 to E401 |
| P1 V3Y | CCNE1, cyclin fold, Cln2 fusion (human) | yeast growth competition, sequencing | yeast | strong parent motif | relative to: not given, higher = stronger binding | normalised enrichment score | 6.74 |

Repeated from above (series 2):
| Sequence | E-score |
| --- | --- |
| AGTTGCCA | -0.23 |
| GATTGTAA | 0.232 |
| TTGTACAA | 0.296 |
